Experimental data collected from several papers.
Lines come from different studies, so protocols differ. Several values in a cell are separate wells, animals, samples, runs or records. Numbers after ± are the reported error.

Cc1nn(-c2nc3c(F)cc(F)cc3s2)c(O)c1C(c1ccc(C(F)(F)F)cc1)c1c(C)nn(-c2nc3c(F)cc(F)cc3s2)c1O gave an MRT(0-last) of 5.41 h and 8.78 h and 4.6 h (ICR mouse, plasma; intravenous, 5 mg/kg).
COc1ccc(C(=O)c2c(C(=O)NCCCN(C)C)oc3ccc(Cl)cc3c2=O)cc1OC: “AUC extrapolated share” 24% (C57BL/6 mice, male, brain; oral, 5 mg/kg).
Under “Neutrophils differential count”, CCc1cnc(NC(=O)c2cc(S(=O)(=O)N3CCOCC3)ccc2N(C)C2CCCC2)s1 is recorded as 22% (mouse, blood; 10 mg/kg, 3 doses).
With Cc1ccc(OCC(=O)N(Cc2cccs2)c2ccn[nH]2)cc1 the remaining compound was 107 (monkey plasma; 750 ng/mL, 1 h, 37 °C, unit not given; baseline: time zero).
Under “intact radiolabelled complex”, O=C([O-])CN1CCN(CC(=O)[O-])CCN(CC(CCCc2ccccc2[N+](=O)[O-])N(CC(=O)[O-])CC(=O)[O-])CC1.[90Y+3] (stereo not shown) is recorded as 100% (HPLC; human serum; 48 h, pH 7, 37 °C).
The Tmax of C=C(NC(=O)c1csc(-c2nc3c(cc2O)-c2nc(cs2)C(=O)NC(C(C)O)C(=O)NC(=C(C)OC)c2nc(cs2)C(=O)NC2c4nc(cs4)C(=O)NC(COC(=O)c4c5c6c(cccc6n4O)COC(=O)C(OC4CC(C)(O)C(N(C)C)C(C)O4)C2OC5)c2nc-3cs2)n1)C(N)=O (stereo not shown) is reported as 4.8 min (female Sprague-Dawley rat, plasma; intravenous, 6 mg/kg, single dose, infusion).
With OC1(C(F)(F)F)CCN(c2nc(Nc3ccnc(C(F)(F)F)c3)nc(-c3cccc(C(F)(F)F)n3)n2)C1 (stereo not shown) the half-life was 15.2 ± 6.6 h (monkey, plasma; oral, 10 mg/kg).
CC[C@H](C)[C@@H]1NC(=O)[C@H](Cc2ccc(O)cc2)NC(=O)CCCSC[C@@H](C(=O)N(CC(=O)N[C@@H](CC(C)C)C(=O)NCC(N)=O)Cc2ccc(F)cc2)NC(=O)[C@H](CC(N)=O)NC(=O)[C@H](CCC(N)=O)NC1=O — result for “subjects with any TEAE”: 33% (human; intranasal, 50 µg single dose).
O=C(Nc1ccccc1)C1(C(F)(F)F)CCC1 gave a solubility of ≥ 400 µM (PBS; 2 h, pH 7.4, 25 °C).
The plasma concentration of Cc1noc(C)c1Cn1cc(N2C(=O)CN(Cc3cccc(OS(=O)(=O)O)c3)C2=O)cn1 is reported as 3320 ng/mL (Sprague-Dawley rat, male; oral, 30 mg/kg of parent drug, 2 h).
CC1Cc2ccccc2N1C(=O)CN1CCN(Cc2ccccc2)CC1 (stereo not shown) has a concentration of 1420 ng/mL and 1940 ng/mL (female NMRI mice, brain; intraperitoneal, 10 mg/kg free base, 15 min).
The SUV of O=C(Nc1cnccc1-c1ccc([18F])nc1)c1ccnc(NC(=O)C2CC2)c1 is reported as 8.44 (FVB/NJ mouse, both sexes, liver; intravenous, 50 min, added: tariquidar 15 mg/kg iv).
With C=CC(=O)Nc1cc(Nc2nccc(-c3cn(C)c4ccccc34)n2)c(OC)cc1N(C)CCNC the remaining compound was 100% (human, dried blood spots; 270 ng/mL, 2 h, -80 °C, high QC level).
The tissue/plasma ratio of C/C(N)=N/C(=N\S(=O)(=O)c1ccc(C(F)(F)F)cc1)N1C[C@H](c2ccccc2)C(c2ccc(Cl)cc2)=N1 is reported as 6 (C57BL/6 mouse, male, kidney; intravenous, 10 mg/kg; baseline: kidney over plasma).
CC(C)(O)c1ncc([S@](N)(=O)=NC(=O)Nc2c3c(cc4c2CCC4)CCC3)s1: “subjects with TEAEs” 33% (item: blood, lymphatic system disorders; healthy human; oral, 3 mg, CS formulation).
With C=CC(=O)Nc1cc(Nc2nccc(-c3c[nH]c4ccccc34)n2)c(OC)cc1N(C)CCN(C)C the recovery was 71.9% (storage stability; human plasma; 72 h, on ice, high QC level).
The zeta potential of CCCCC/C=C\CCCO[Si](CCCCN(C)CCO)(OCCC/C=C\CCCCC)OCCC/C=C\CCCCC is reported as 3.28 mV (pH 5.5, formulated).
CCCCN1C(=O)c2cccc3c(NCCCCCN4CCOCC4)ccc(c23)C1=O: “fluorescence quantum yield” 1.03 (dichloromethane).
With Cl.NCc1ccc2c(c1)CN(C1CCC(=O)NC1=O)C2=O (stereo not shown) the remaining compound was > 95% (human, mixed sex, whole blood; 3 h).
For CC(=O)N([O-])CCCCCNC(=O)CCC(=O)N([O-])CCCCCNC(=O)CCC(=O)N([O-])CCCCCN.[89Zr+4], the tracer uptake was 0.17 %ID/g (mouse, lung; 4 h).
The V1/F of C=C[C@]1(C)C[C@@H](OC(=O)CSc2ccc(NC(=O)c3ccco3)cc2)[C@]2(C)[C@H](C)CC[C@]3(CCC(=O)[C@H]32)[C@@H](C)[C@@H]1O is reported as 6.34 L/kg (chicken, Mycoplasmoides gallisepticum infected, plasma; intramuscular, 80 mg/kg).
Under “tumour-to-small intestine ratio”, COc1cccc(OC)c1-c1cc(C(=O)NC2(C(=O)O)C3CC4CC(C3)CC2C4)nn1-c1ccc(C(=O)N(C)CCCN(C)CCCN(C)C(=O)[C@H](CCCCNC(=O)[C@H](CC(C)C)NC(=O)C2OC2C(=O)O)NC(=O)CN2CCN(CC(=O)[O-])CCN(CC(=O)[O-])CCN(CC(=O)[O-])CC2)cc1C(C)C.[177Lu+3] (mixture of isomers) is recorded as 26 (mouse HT-29 xenograft; 72 h, biodistribution; baseline: tumour over small intestine).
CN(C)S(=O)(=O)c1ccc(S(=O)(=O)N2CCC(n3c(=O)[nH]c4ccccc43)CC2)cc1 has a solubility of < 2 µg/mL (HPLC; soya oil; 24 h, 20 °C).
With COc1cccc(OC)c1-c1cc(C(=O)NC2(C(=O)O)C3CC4CC(C3)CC2C4)nn1-c1ccc(C(=O)N(C)CCOCCOCCN(C)C(=O)[C@H](CCCCNC(=O)[C@H](CC(C)C)NC(=O)C2OC2C(=O)O)NC(=O)CN2CCN(CC(=O)[O-])CCN(CC(=O)[O-])CCN(CC(=O)[O-])CC2)cc1C(C)C.[177Lu+3] (mixture of isomers) the tumour-to-lung ratio was 1.65 (mouse, HT-29 xenograft; 168 h post injection, biodistribution; baseline: tumour over lung uptake).
CC[C@H](C)[C@H](NC(=O)[C@H](CC(=O)O)NC(C)=O)C(=O)N[C@H](C(=O)N[C@H](C(=O)N[C@@H](CCCNC(=N)N)C(=O)N[C@@H](Cc1ccc(O)cc1)C(=O)N[C@@H](CC(N)=O)C(=O)NCC(=O)N[C@@H](CCCCN)C(=O)N[C@H](C(=O)N[C@@H](Cc1c[nH]c2ccccc12)C(=O)N[C@@H](Cc1c[nH]c2ccccc12)C(=O)N[C@@H](CCCNC(=N)N)C(=O)O)C(C)C)[C@@H](C)O)[C@@H](C)O has a α-helix content of 3.95% (circular dichroism; free peptide in solution; concentration not given, 25 °C, no insulin present).

A few entries again:
The zeta potential of CCCCC/C=C\CCCO[Si](CCCCN(C)CCO)(OCCC/C=C\CCCCC)OCCC/C=C\CCCCC is reported as 3.28 mV (pH 5.5, formulated).
